Results of several laboratories.
Each line is one published result; not all experiments were run side by side. Numbers after ± are the reported error.
CDK4: Cyclin-dependent kinase 4 (CDK4, Homo sapiens, UniProt P11802)
Chain of UniProt P11802 (whole entry, looked up): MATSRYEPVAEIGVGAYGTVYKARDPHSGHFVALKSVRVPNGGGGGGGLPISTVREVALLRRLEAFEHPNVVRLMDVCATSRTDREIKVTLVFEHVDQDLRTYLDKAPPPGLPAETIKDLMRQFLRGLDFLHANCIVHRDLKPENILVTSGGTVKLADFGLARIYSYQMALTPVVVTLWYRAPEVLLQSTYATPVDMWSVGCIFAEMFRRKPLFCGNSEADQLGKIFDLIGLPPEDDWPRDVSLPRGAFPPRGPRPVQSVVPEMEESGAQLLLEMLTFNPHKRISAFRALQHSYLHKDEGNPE
HDAC11: Histone deacetylase 11 (HDAC11, Homo sapiens, UniProt Q96DB2)
Chain of UniProt Q96DB2 (whole entry, looked up): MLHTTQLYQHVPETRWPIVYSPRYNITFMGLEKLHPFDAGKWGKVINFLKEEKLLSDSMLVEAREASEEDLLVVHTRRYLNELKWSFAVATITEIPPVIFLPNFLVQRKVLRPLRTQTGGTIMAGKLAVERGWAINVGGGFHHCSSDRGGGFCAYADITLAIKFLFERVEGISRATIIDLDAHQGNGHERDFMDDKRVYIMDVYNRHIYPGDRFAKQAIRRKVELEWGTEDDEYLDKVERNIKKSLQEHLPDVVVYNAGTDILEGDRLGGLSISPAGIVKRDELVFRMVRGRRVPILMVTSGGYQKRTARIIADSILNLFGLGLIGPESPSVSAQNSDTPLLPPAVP
MARS2: Methionine--tRNA ligase, mitochondrial (MARS2, Homo sapiens, UniProt Q96GW9)
Chain of UniProt Q96GW9 (whole entry, looked up): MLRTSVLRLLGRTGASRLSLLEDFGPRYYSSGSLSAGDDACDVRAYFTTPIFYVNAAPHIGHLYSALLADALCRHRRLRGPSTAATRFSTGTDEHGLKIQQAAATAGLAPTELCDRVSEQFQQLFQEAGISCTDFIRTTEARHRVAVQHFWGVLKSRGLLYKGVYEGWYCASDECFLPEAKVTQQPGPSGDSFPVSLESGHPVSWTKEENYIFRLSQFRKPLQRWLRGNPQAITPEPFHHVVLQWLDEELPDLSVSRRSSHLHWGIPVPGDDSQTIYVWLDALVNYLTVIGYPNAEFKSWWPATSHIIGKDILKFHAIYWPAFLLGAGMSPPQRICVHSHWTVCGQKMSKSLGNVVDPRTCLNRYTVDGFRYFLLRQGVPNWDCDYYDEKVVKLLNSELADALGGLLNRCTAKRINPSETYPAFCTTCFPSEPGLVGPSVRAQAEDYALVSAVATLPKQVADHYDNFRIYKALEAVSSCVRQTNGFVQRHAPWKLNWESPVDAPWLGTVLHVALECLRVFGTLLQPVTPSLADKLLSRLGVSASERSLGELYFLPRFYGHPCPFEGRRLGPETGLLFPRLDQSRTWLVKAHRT
SIRT5: NAD-dependent protein deacylase sirtuin-5, mitochondrial (SIRT5, Homo sapiens, UniProt Q9NXA8)
Chain of UniProt Q9NXA8 (whole entry, looked up): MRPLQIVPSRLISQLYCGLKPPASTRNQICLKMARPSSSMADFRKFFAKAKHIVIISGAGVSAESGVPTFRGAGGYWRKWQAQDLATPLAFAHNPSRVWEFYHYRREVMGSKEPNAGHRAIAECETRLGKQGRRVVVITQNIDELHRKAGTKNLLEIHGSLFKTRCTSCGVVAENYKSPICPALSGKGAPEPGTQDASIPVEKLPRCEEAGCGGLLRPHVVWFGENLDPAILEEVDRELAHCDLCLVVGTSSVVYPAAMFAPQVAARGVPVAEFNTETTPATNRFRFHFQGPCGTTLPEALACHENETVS
DDR2: Discoidin domain-containing receptor 2 (DDR2, Homo sapiens, UniProt Q16832)
Chain of UniProt Q16832 (whole entry, looked up): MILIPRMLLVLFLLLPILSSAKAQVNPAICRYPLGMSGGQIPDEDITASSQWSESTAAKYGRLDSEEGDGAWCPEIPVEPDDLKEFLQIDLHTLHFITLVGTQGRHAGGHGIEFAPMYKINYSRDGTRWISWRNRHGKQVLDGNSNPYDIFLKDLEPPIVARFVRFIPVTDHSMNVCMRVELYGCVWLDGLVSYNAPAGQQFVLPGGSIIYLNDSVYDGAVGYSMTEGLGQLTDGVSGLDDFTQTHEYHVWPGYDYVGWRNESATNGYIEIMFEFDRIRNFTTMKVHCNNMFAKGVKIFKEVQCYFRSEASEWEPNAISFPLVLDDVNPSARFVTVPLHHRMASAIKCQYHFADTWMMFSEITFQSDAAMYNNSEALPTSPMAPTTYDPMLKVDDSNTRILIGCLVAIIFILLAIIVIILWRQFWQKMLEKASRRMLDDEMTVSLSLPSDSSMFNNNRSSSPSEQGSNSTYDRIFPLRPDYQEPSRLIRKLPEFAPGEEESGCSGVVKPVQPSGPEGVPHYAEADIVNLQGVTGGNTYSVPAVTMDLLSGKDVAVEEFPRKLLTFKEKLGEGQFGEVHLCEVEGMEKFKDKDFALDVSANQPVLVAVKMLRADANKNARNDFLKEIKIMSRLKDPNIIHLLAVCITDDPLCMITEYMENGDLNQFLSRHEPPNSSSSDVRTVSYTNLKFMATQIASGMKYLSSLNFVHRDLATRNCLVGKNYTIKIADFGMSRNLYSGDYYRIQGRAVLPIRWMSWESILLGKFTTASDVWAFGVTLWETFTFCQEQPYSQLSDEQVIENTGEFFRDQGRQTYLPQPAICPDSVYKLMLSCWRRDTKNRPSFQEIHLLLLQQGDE
VKORC1: Vitamin K epoxide reductase complex subunit 1 (VKORC1, Homo sapiens, UniProt Q9BQB6)
Chain of UniProt Q9BQB6 (whole entry, looked up): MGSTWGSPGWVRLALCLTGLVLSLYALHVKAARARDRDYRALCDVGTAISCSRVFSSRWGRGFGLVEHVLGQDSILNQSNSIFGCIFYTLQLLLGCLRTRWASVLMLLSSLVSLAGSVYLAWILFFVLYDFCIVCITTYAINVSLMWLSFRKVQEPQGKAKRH
Gria2: Glutamate receptor 2 (Gria2, Rattus norvegicus, UniProt P19491)
Chain of UniProt P19491 (whole entry, looked up): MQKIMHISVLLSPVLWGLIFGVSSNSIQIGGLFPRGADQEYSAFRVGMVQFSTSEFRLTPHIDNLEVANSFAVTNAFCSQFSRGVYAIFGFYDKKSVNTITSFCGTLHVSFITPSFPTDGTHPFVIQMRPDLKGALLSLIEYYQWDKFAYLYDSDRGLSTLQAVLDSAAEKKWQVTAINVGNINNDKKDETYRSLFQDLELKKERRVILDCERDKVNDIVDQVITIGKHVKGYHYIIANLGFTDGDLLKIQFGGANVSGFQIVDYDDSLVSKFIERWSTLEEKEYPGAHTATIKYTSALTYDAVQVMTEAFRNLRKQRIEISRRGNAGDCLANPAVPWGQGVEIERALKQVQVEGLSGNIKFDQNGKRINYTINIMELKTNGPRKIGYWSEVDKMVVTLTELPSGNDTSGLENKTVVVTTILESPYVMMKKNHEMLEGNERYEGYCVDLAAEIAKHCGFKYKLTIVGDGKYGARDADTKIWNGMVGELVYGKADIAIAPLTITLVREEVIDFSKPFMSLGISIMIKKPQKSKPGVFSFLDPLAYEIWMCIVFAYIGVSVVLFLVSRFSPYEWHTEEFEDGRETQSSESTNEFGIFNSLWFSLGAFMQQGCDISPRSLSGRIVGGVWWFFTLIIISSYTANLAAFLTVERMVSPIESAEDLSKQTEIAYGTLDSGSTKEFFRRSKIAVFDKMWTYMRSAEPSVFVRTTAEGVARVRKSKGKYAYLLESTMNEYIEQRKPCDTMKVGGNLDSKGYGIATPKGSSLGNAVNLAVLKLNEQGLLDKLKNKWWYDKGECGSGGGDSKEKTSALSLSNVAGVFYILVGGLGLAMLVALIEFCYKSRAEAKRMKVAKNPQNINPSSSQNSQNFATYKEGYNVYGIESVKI
Chain of UniProt P23526 (whole entry, looked up): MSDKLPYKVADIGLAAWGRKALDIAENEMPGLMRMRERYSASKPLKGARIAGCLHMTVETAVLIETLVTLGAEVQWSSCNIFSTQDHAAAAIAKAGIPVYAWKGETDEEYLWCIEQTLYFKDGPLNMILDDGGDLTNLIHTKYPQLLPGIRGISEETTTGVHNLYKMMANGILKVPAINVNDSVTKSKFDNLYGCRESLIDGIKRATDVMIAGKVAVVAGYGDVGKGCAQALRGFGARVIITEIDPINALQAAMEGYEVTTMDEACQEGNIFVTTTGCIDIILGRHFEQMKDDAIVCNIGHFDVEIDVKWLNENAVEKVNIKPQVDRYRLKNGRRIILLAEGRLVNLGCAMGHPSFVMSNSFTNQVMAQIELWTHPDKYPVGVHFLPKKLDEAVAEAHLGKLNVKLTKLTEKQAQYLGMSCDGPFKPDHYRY
Chain of UniProt Q93009 (whole entry, looked up): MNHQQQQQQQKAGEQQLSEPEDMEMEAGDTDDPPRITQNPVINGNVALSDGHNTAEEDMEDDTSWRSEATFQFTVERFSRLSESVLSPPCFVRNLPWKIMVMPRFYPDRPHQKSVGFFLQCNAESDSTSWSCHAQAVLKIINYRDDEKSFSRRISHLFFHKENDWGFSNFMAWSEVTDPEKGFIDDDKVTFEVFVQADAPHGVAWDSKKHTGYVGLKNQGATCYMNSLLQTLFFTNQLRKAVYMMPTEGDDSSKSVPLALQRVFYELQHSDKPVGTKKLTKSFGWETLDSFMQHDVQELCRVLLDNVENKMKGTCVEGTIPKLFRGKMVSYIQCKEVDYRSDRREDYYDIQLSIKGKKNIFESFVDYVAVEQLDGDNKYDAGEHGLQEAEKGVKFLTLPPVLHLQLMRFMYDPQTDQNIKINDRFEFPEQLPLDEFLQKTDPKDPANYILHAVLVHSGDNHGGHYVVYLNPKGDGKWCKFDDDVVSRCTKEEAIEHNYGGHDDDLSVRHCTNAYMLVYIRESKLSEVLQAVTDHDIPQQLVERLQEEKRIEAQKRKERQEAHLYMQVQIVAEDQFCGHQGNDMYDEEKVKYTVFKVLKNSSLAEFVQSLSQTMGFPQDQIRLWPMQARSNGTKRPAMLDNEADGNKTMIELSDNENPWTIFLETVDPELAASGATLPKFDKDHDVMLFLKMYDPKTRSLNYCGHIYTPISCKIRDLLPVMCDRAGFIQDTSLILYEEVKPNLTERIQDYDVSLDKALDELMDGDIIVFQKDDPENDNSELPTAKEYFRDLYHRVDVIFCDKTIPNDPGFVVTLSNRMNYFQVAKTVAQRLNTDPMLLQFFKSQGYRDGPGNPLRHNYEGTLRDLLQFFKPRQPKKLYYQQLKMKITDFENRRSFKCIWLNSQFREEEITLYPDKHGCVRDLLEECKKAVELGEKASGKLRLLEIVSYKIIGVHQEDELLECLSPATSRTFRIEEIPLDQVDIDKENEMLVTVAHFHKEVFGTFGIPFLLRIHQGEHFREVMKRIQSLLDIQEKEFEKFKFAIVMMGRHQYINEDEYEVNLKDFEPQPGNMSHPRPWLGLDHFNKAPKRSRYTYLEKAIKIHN

Structure (SMILES)	target	test	system	conditions	IC50 [nM]
Cc1ccc(-n2nc(C(=O)Nc3cccc(C(N)=O)c3)cc2-c2ccc(CC(C)C)cc2)cc1	Genome polyprotein, NS2B-NS3 protease (dengue virus type 2, UniProt P29990)	enzyme activity	–	together with: AMC substrate 50 µM	6500
COC(=O)CCCCNC(=O)c1ccc(Nc2ncc(F)c(-c3cc(F)c4nc(C)n(C(C)C)c4c3)n2)cc1	CDK4	–	–	–	9
C=CC[C@@H]1NC(=O)CCSCc2nc3ccccc3nc2CSC/C=C/CNC(=O)[C@H](CCCCCC(=O)N(O)CCCCCC)NC1=O	HDAC11	enzyme activity, inhibitor, fluorescence	–	–	180
CCOc1ccc(C(=O)/C=C/c2ccc(C(C)C)cc2)cc1	MAOA (Homo sapiens, UniProt P21397)	enzyme activity, inhibitor	–	–	7000
COC(=O)CCCCCNC(=O)c1ccc(Nc2ncc(F)c(-c3cc(F)c4nc(C)n(C(C)C)c4c3)n2)cc1	CDK4	–	–	–	1.9
CN[C@H]1CCN(C(=O)c2c(C)cc(C(F)(F)F)nc2-c2ccnc3cc(CN4C(=O)C5C(C4=O)C5(C)C)sc23)C1 (stereo partly drawn)	USP7 (Homo sapiens, UniProt Q93009)	enzyme activity, inhibitor, fluorescence	–	–	33
CCCC[C@H](NC(=O)[C@H](CS)NC(=O)[C@H](Cc1c[nH]c2ccccc12)NC(=O)[C@H](CCCNC(=N)N)NC(=O)[C@@H](Cc1ccccc1)NC(=O)[C@H](Cc1c[nH]cn1)NC(=O)[C@H](CCC(=O)O)NC(=O)[C@H](CS)NC(=O)[C@H](CS)NC(C)=O)C(=O)NCC(=O)NCC(N)=O	Mc1r (Mus musculus, UniProt Q01727)	ligand displacement, radioligand	–	–	70.9
O=C(CCc1ccc(CNC(C(=O)O)C2CCCCC2)cn1)NO (stereo not drawn)	HDAC11	enzyme activity, inhibitor	–	–	871
Nc1ncnc2c1ncn2[C@@H]1C(F)=C(CO)[C@@H](O)[C@H]1O	AHCY (Homo sapiens, UniProt P23526)	enzyme activity, inhibitor	–	–	150
Clc1cc(Cl)c2c(c1)[C@H](NCCCNc1nc3ncccc3[nH]1)CCN2	MARS2	enzyme activity, inhibitor	–	–	< 13
O=C(O)CCNC(=S)NCCCC[C@H](NS(=O)(=O)c1cccc(F)c1)C(=O)N[C@@H](Cc1c[nH]c2ccccc12)C(=O)NC1CCC1	SIRT5	inhibitor, fluorogenic	–	pre-incubation 16 h, together with: NAD+ 500 µM	104 ± 3
O=C(CN1CN(c2ccccc2)C2(CCN(C(=O)c3ccc4[nH]ncc4c3)CC2)C1=O)Nc1cccnc1	DDR2	ligand displacement	–	–	41500
N#CN1CC[C@H](C(=O)Nc2nc3c(s2)CN(C(=O)Cn2cc(CNC(=O)CCCC[C@@H]4SC[C@@H]5NC(=O)N[C@@H]54)nn2)CC3)C1	UCHL1 (Homo sapiens, UniProt P09936)	enzyme activity, inhibitor, fluorescence	–	with preincubation	500
COC(=O)CCCCCCC(=O)Nc1ccc(Nc2ncc(F)c(-c3cc(F)c4nc(C)n(C(C)C)c4c3)n2)cc1	CDK4	–	–	–	2.2
CCCC(=O)OC1CCC2(C)C(CCC3(C)C2CC=C2C4C(C)C(C)CCC4(C(=O)O)CCC23C)C1(C)C (stereo not drawn)	UGT1A7 (Homo sapiens, UniProt Q9HAW7)	enzyme activity, inhibitor	–	–	> 100000
C=CC(=O)N1C[C@H](C)N(c2nc(OC[C@@]34CCCN3C[C@H](F)C4)nc3c(F)c(-c4ccc(F)c5sc(N)c(C#N)c45)c(C(F)(F)F)cc23)C[C@H]1C	GTPase KRas, GppNHp; with RAF1 RBD (KRAS, Homo sapiens, UniProt P01116, A146T)	–	–	–	480 ± 70
CC(C(=O)N1CCCC1c1cc2nc3c(c(O)n2n1)CCCC3)n1cncn1 (stereo not drawn)	VKORC1	carboxylation, inhibitor, ELISA	HEK293 stably expressing	24 h, together with: vitamin K epoxide 5 µM	19300
C=CC[C@@H]1NC(=O)CCSCc2ccc(cc2)CSC/C=C/CNC(=O)[C@H](CCCCCC(=O)N(O)CCCCCC)NC1=O	HDAC11	enzyme activity, inhibitor, fluorescence	–	–	410
Cc1nc2c(F)cc(-c3nc(Nc4ccc(NC(=O)CCCCCCC(=O)O)cc4)ncc3F)cc2n1C(C)C	CDK4	–	–	–	2.2
O=C(CN1CN(c2ccccc2)C2(CCN(C(=O)c3ccc4[nH]ncc4n3)CC2)C1=O)NCC(F)(F)F	DDR2	ligand displacement	–	–	858
Cc1c(OS(=O)(=O)Oc2ccccc2-c2ccccc2)cccc1C(=O)NO	HDAC11	–	–	–	491
Cc1cc(NC2CCN(C)CC2)ccc1-c1cc2c(N3CCC[C@H](C(=O)NCc4ccc(OC(F)(F)F)cc4)C3)ncnc2[nH]1	DYRK1A (Homo sapiens, UniProt Q13627)	enzyme activity, inhibitor, mobility shift	–	–	> 8000
NCC1CCN(c2nc(-c3ccncc3)nc3c(C#CCO)cccc23)CC1	LATS2 (Homo sapiens, UniProt Q9NRM7)	enzyme activity, inhibitor, radiometric	–	–	7

Structure (SMILES)	target	test	system	conditions	IC50 [nM]
CC(C)C[C@H](NC(=O)[C@@H](CCCCNC(=O)CCCCCNC(=O)[C@@H](Cc1ccccc1)NC(=O)CN1CCN(CC(=O)O)CCN(CC(=O)O)CCN(CC(=O)O)CC1)NC(=O)[C@H](Cc1ccc(O)cc1)NC(=O)[C@H](CO)NC(=O)[C@H](Cc1c[nH]c2ccccc12)NC(=O)[C@H](Cc1c[nH]cn1)NC(=O)[C@@H]1CCC(=O)N1)C(=O)N[C@@H](CCCNC(=N)N)C(=O)N1CCC[C@H]1C(=O)NCC(N)=O	GNRHR (Homo sapiens, UniProt P30968)	ligand displacement, radioligand	–	pH 7.4, cell membranes	16.3
Cc1nn(-c2cccc(N)c2)c(=O)c2cnc(Nc3ccc(N4CCNCC4)cc3)nc12	MTOR (Homo sapiens, UniProt P42345)	enzyme activity, inhibitor	–	–	> 10000
CC1CN(C(=O)Cn2ncc3cccn3c2=O)CC(C)O1 (stereo not drawn)	VKORC1	carboxylation, inhibitor, cell-based	–	–	5500
O=C(O)Cc1cc2c(cc1C(=O)c1cccc(Cl)c1)OCO2	Gria2	glutamate-evoked current, inhibitor, whole-cell patch clamp	HEK293T, homomeric receptor	–	3890
CC(C)(C)OC(=O)N1CCN(c2ccc3c(O)c(C(=O)NCc4ccc(C#N)nc4)ncc3n2)CC1	EGLN2 (Homo sapiens, UniProt Q96KS0)	enzyme activity, inhibitor, AlphaScreen	–	together with: CODD peptide, Fe(II) 10 µM	1.2
Fc1cc2nc(NCCCNCc3cc(Cl)cc(Cl)c3)[nH]c2cc1F	MARS2	enzyme activity, inhibitor	–	–	7040
CCN(CC)CC(=O)Nc1cccc(-n2cc(-c3ccc4ccc(-c5cn(-c6cccc(NC(=O)CN(CC)CC)c6)nn5)cc4c3)nn2)c1	PDPK1 (Homo sapiens, UniProt O15530)	enzyme activity, inhibitor	–	–	> 10000
COC(=O)CCCCCCCC(=O)Nc1ccc(Nc2ncc(F)c(-c3cc(F)c4nc(C)n(C(C)C)c4c3)n2)cc1	CDK4	–	–	–	4.3
Cn1c(S)nnc1-c1ccc(F)cc1	TAR DNA-binding protein 43, residues 102-269 (TARDBP, Homo sapiens, UniProt Q13148)	protein-RNA binding, inhibitor, fluorescence polarization	–	40 nM protein, together with: 10 nM RNA	8200 ± 1330
CN(CC(F)(F)F)C(=O)CN1CN(c2ccccc2)C2(CCN(C(=O)c3ccc4[nH]ncc4c3)CC2)C1=O	DDR2	ligand displacement	–	–	1650
COC(=O)Cc1cc2c(cc1C(=O)c1ccccc1Cl)OCO2	Gria2	ion current, patch clamp	–	–	5020
O=C(NCC1CCOCC1)c1n[nH]cc1NC(=O)c1c(F)cccc1F	CDKL5 (Homo sapiens, UniProt O76039)	target engagement in cells, BRET	–	–	1400
Cc1nc2c(F)cc(-c3nc(Nc4ccc(CNC(=O)CCCC(=O)NO)cc4)ncc3F)cc2n1C(C)C	CDK4	–	–	–	0.41
CCOc1cc(CN2CC3(CC(N4CCC(C(=O)O)CC4)=NO3)C2)cc(OCC)c1-c1ccc(F)cc1	SSTR5 (Homo sapiens, UniProt P35346, N100A)	cAMP level, antagonist, GloSensor	AD293	N100A mutant, bandwidth 2.64, together with: CST17 EC80 and forskolin	1120
COC(=O)Cc1cc2c(cc1C(=O)c1cccc(I)c1)OCO2	Gria2	ion current, patch clamp	–	–	5630
O=C1CCC(N2C(=O)c3ccc(N4CCC(C(=O)N5CCC(CCN6CCC(CNC(=O)c7cccc(-c8noc(C(F)(F)F)n8)c7)(c7nc(-c8ccccc8)cs7)CC6)CC5)CC4)cc3C2=O)C(=O)N1 (stereo not drawn)	HDAC4 (Homo sapiens, UniProt P56524)	–	–	–	> 10000
COC(=O)CCCCCCNC(=O)Cc1ccc(Nc2ncc(F)c(-c3cc(F)c4nc(C)n(C(C)C)c4c3)n2)cc1	CDK4	–	–	–	2
C[C@H](Cn1nnc2ccccc21)NC(=O)Cn1cnc2ccccc2c1=O	VKORC1	carboxylation, inhibitor, ELISA	HEK293 stably expressing	24 h, together with: vitamin K epoxide 5 µM	9020
Cc1ccc(C[C@H]2CON=C(c3cc(C)nnc3Oc3cccc(Cl)c3F)N2)c(Cl)c1	serine palmitoyltransferase (Botrytis cinerea, UniProt A0A384JAG3+A0A384JQT2)	–	–	–	3 ± 1
O=C(NC1CCC1)[C@H](Cc1c[nH]c2ccccc12)NC(=O)[C@H](CCCCNC(=S)NCCc1noc(=O)[nH]1)NS(=O)(=O)c1cccc(F)c1	SIRT5	enzyme activity, inhibitor	–	–	108 ± 4
Cc1cc(C)c(S(=O)(=O)N(CC(=O)O)c2ccc(Nc3ccnc(N4CCCC4)n3)cc2)c(C)c1	ATR (Homo sapiens, UniProt Q13535)	enzyme activity, inhibitor	–	–	> 100000
O=C(Cc1ccc(OCc2ccccc2)cc1)NC1(C(=O)O)CCN(C(=O)c2ccc(-c3cccc(Cl)c3)cc2)CC1	CNR2 (Homo sapiens, UniProt P34972)	antagonist, GloSensor cAMP	–	–	> 10000

Repeated from above:
Structure (SMILES)	target	test	system	conditions	IC50 [nM]
Cc1c(OS(=O)(=O)Oc2ccccc2-c2ccccc2)cccc1C(=O)NO	HDAC11	–	–	–	491
O=C(NCC1CCOCC1)c1n[nH]cc1NC(=O)c1c(F)cccc1F	CDKL5 (Homo sapiens, UniProt O76039)	target engagement in cells, BRET	–	–	1400
COC(=O)CCCCNC(=O)c1ccc(Nc2ncc(F)c(-c3cc(F)c4nc(C)n(C(C)C)c4c3)n2)cc1	CDK4	–	–	–	9
Cc1cc(C)c(S(=O)(=O)N(CC(=O)O)c2ccc(Nc3ccnc(N4CCCC4)n3)cc2)c(C)c1	ATR (Homo sapiens, UniProt Q13535)	enzyme activity, inhibitor	–	–	> 100000
